Published values collected from several papers.
Each line is one published result; not all experiments were run side by side. Numbers after ± are the reported error.

SMILES | cell line | assay | setting | how to read | measurement | result
COc1cc(CNC(=O)C[C@H](C)CCC=C(C)C)ccc1OCc1cn(-c2cccc(Cl)c2)nn1 | IGROV-1 ovarian cancer cells | SRB | 10 µM, 48 h |  | growth percent | 95.3%
CCCCCCCC(=O)O[C@H]1[C@H](C)O[C@@H](O[C@H]2[C@H](N(C)C)[C@@H](O)[C@H](O[C@H]3[C@@H](CC=O)C[C@@H](C)[C@@H](O[C@H]4CC[C@H](N(C)C)[C@@H](C)O4)/C=C/C=C/C[C@@H](C)OC(=O)C[C@@H](O)[C@@H]3OC)O[C@@H]2C)C[C@@]1(C)O | GES-1 and HGC-27 | cell growth, CCK-8 | 72 h | reference: IC50 GES-1 over HGC-27 | selectivity index | 3.05
O=C(c1ccc2ccccc2c1)c1cn(-c2ccccc2)nc1C1=Nn2c(Cc3nnc4n3N=C(c3nn(-c5ccccc5)cc3C(=O)c3ccc5ccccc5c3)CS4)nnc2SC1 | MCF7 cells | RT-PCR, refers to: Bax | IC50, 48 h | reference: untreated | mRNA level | 7.6 fold
CCOC(=O)c1c(-c2ccc(C)cc2)oc2nc(N3CC[C@H](F)C3)ccc12 | CRL8155 | cell growth or viability | 48 h |  | EC50 | > 50 µM
CC(=C(c1ccc(O)cc1)c1ccc(Cl)cc1)c1ccc(Cl)cc1 | SR | cell growth or viability |  |  | GI50 | 0.74 µM
Cc1cc(C)nc(NC(=S)N2CCN(c3ccc(C(F)(F)F)cn3)CC2)c1 | MDA-MB-231 expressing PHGDH |  | concentration not given, serine- and glycine-free medium |  | glycine concentration | decreased
CC(C)C1=C(O)C(=O)C2=C(C1=O)[C@H](O)[C@@H](O)[C@H]1C(C)(C)CCC[C@]21C | NCI-H460/R P-gp overexpressing | MTT | 72 h |  | GI50 | 25 ± 2 µM
O=S(=O)(CCC(F)(F)F)Nc1ccc(Oc2ncccc2-c2ccnc(N[C@H]3CCCNC3)n2)c2ccccc12 | INS1 cells with Dox-inducible IRE1α | RNA-Seq | 20 µM, added: 5 ng/mL doxycycline |  | Txnip mRNA level | inhibited
Brc1ccc(Nc2nc(NN=Cc3c[nH]c4ccccc34)nc(-n3ccnc3)n2)cc1 | A549 and SK-BR-3 | autophagy, Western blot | 3 µM, 20 h |  | LC3-II level | increased
Cc1nn(-c2ccc(S(=O)(=O)N[C@@H](CO)CC(C)C)cc2)c2nn3nnnc3nc12 | PC-3 | DNA damage, alkaline comet | 1 µM, 24 h |  | tail DNA | 49.5 ± 4.28%
Cc1c(C)n(-c2c(C(C)C)cccc2C(C)C)c(=[Se])n1-c1c(C(C)C)cccc1C(C)C.[Cl][Au] | LoVo MDR | MTT |  | reference: LoVo MDR over LoVo | resistance factor | 1.9
CN(C)c1cc2ccccc2c(N)n1 | LX-2 | western blot | concentration not given, 6 h pre-treatment, added: TGF-β1 5 ng/mL for 24 h |  | α-SMA protein level | inhibited
CCC/C(=C\C1=C(OC)C(=O)c2ccccc2C1=O)C(=O)NOC | NF90-8 cells | HIF1α reporter gene, luciferase reporter | 24 h, 1% oxygen hypoxia |  | EC50 | 8.1 ± 0.53 µM
CC(=O)N[C@H](C(=O)N[C@H](C(=O)N[C@@H](CCCNC(=N)N)C(=O)N1Cc2ccccc2C[C@H]1C(=O)N[C@@H](Cc1ccccc1)C(N)=O)C1CCCCC1)C(C)C | MBP-specific BC-3 T cells | Bio-Plex multiplex, refers to: IL-15 | 200 µg/mL, 24 h, added: MBP87-99 antigen |  | cytokine level | < 0.2 pg/mL
COc1cccc(Cc2cc(CCC(=O)NCCNc3cccc4c(S(=O)(=O)O)cccc34)nn(CC(=O)Nc3ccc(Br)cc3)c2=O)c1 | human neutrophils | calcium flux |  | reference: antagonist IC50 over agonist EC50 | potency ratio | 10 fold
C=C1C(=O)OC2C1CCC1(C)CC1CCC1(C)OC21 (centres unmarked) | TEX | CellROX Green flow cytometry | 25 µM, 30 min | reference: untreated | ROS level | 1.6 fold
O=C(NCC1(c2nc(-c3ccccc3)cs2)CCOCC1)c1cccc(-c2noc(C(F)(F)F)n2)c1 | DHL6 | RNA sequencing | 3 µM, 12 h |  | upregulated genes | 210 genes
CN[C@@H](C)C(=O)N[C@H]1CN(C(=O)Cc2ccccc2)CC[C@H]2CC[C@@H](C(=O)NCc3ccc(Br)cc3)N2C1=O | SK-OV-3 | caspase-8, caspase-3, PARP cleavage, western blot | 24 h |  | onset concentration | ≥ 0.3 µM
Cc1nn(C)c(O)c1-c1nc2cc(Cl)c(Cl)cc2[nH]c1=O | TF-1 | annexin V | IC25, 24 h |  | apoptotic cells | ~15%

SMILES | cell line | assay | setting | how to read | measurement | result
COc1cc(CNC(=O)C[C@H](C)CCC=C(C)C)ccc1O | A549/ATCC | SRB | 10 µM, 48 h |  | growth | 96.4%
Cc1cccc(NCC(=O)Nc2nc3ccccc3s2)c1 | normal fibroblasts |  | 10 µM |  | inhibition | 9.09%
COCCNCC(=O)N(CCCCN)CC(=O)N(CC(=O)N(CC(=O)N(CCCCN)CC(=O)N[C@@H](CCCCN)C(=O)N[C@H](CCCCN)C(=O)N[C@@H](CCSC)C(=O)NCCCC[C@H](NC(=O)[C@H](CCSC)NC(=O)[C@@H](CCCCN)NC(=O)[C@H](CCCCN)NC(=O)CN(CCCCN)C(=O)CN(C(=O)CN(Cc1ccc2c(c1)OCO2)C(=O)CN(CCCCN)C(=O)CNCCOC)[C@H](C)c1ccccc1)C(N)=O)[C@H](C)c1ccccc1)Cc1ccc2c(c1)OCO2 | H358 ALDH+ cancer stem cells |  | concentration not given | reference: ALDH+ cells over total H358 | activity ratio | 20 fold
FC(F)(F)c1ccnc(-c2cc(C(F)(F)F)ccn2)c1.FC(F)(F)c1ccnc(-c2cc(C(F)(F)F)ccn2)c1.[Cl-].[Cl-].[Ru+2].c1csc(-c2ccc(-c3ccc(-c4ccc(-c5nc6c7cccnc7c7ncccc7c6[nH]5)s4)s3)s2)c1 | SK-MEL-28 | cell viability | 100 J/cm2 light, normoxia, added: visible light 400-700 nm | reference: dark over light EC50 | phototherapeutic index | 10000
COc1cc(CNC(=O)C[C@H](C)CCC=C(C)C)ccc1OCc1cn(-c2cccc(C(F)(F)F)c2)nn1 | MDA-MB-231/ATCC | SRB | 10 µM, 48 h |  | growth | 87.2%
Cc1ccc(C(C)C)cc1.[Cl-].[Cl][Ru+].[Ru+].c1ccc(-c2cn(CCCCOc3ccccc3-c3nc4ccccc4s3)nn2)nc1 | MCF7 | annexin V/PI flow cytometry | 4 µM, 24 h |  | early apoptotic cells | 13.2%
CCN(CC)CC(=O)N1CCN(c2nc(NCc3nc4cc(Cl)c(Cl)cc4[nH]3)c3ncn(CC)c3n2)CC1 | MDA-MB-231 | western blot | concentration not given, 12 or 24 h |  | ATM and RAD51 protein level | decreased
CC1=CC(C)=[N+]2C1=C(CO)c1c(C)cc(C)n1[B-]2(F)F | RPE-1 | resazurin | 0.1667 h, added: 510 nm light, 10 min | reference: dark over light IC50 | phototoxicity index | 20 ± 5
COc1cc(CNC(=O)C[C@H](C)CCC=C(C)C)ccc1OCc1cn(-c2ccccc2[N+](=O)[O-])nn1 | MCF7 breast cancer cells | SRB | 10 µM, 48 h |  | growth percent | 50.5%
CCC(=C(c1ccc(Cl)cc1)c1ccc(OCCCN(C)C)cc1)c1ccc(OC)cc1 | UACC-62 | cell growth or viability, SRB |  |  | GI50 | 1.14 µM
Cc1c(C)c(C)[c-](C)c1C.O=C1c2cccc[n+]2[Ir]([Cl])[N]1CCCCCCCCCC[P+](c1ccccc1)(c1ccccc1)c1ccccc1.[Br-] | SH-SY5Y | SRB | concentration not given, added: 4-hydroxynonenal 150 µM | reference: 4-hydroxynonenal alone | cell viability | 1.5 fold
CN(C)c1cccc2c(S(=O)(=O)NCCCCCC(=O)NO)cccc12 | PC-3 | Western blot | concentration not given |  | histone H3 acetylation | increased
CCOC(=O)CCC(NC(=O)C(NC(=O)c1c(C)nn(-c2cc[nH]c(=O)c2)c1C)C(C)C)C(=O)OCC (centres unmarked) | human PBMCs |  | 10 µM, 24 h, with or without LPS |  | IL-12p70 secretion | increased
COc1cc(CNC(=O)C[C@H](C)CCC=C(C)C)ccc1OCc1cn(-c2ccccc2F)nn1 | A549/ATCC | SRB | 10 µM, 48 h |  | growth | 80.6%
CCCc1nc2cc(C(=O)N3CCC4(CC3)CC(=O)c3cc5c(cc3O4)OC(C)(C)CC5)cc(C)c2[nH]1 | AML12 | refers to: malonyl-CoA | 1 µM, 24 h | reference: untreated | decrease | 25%
COc1cc(CNC(=O)C[C@H](C)CCC=C(C)C)ccc1OCc1cn(-c2ccc([N+](=O)[O-])cc2)nn1 | 786-0 | SRB | 10 µM, 48 h |  | growth | 97%
CO[C@@H]1[C@@H](O[C@@H]2O[C@H](C)[C@@H](O[C@H]3C[C@@](C)(O)[C@@H](OC(=O)CC(C)C)[C@H](C)O3)[C@H](N(C)C)[C@H]2O)[C@@H](CC=O)C[C@@H](C)[C@@H](O[C@H]2CC[C@H](N(C)C)[C@@H](C)O2)/C=C/C=C/C[C@@H](C)OC(=O)C[C@H]1O | GES-1 and HGC-27 | cell growth, CCK-8 | 72 h | reference: IC50 GES-1 over HGC-27 | selectivity index | 2.29
COc1cc(CNC(=O)C[C@H](C)CCC=C(C)C)ccc1OCc1cn(-c2cccc([N+](=O)[O-])c2)nn1 | MOLT-4 leukaemia cells | SRB | 10 µM, 48 h |  | growth percent | 80.6%
COc1ccc([C@@H]2CC(=O)c3c(O)cc(O[C@@H]4O[C@H](CO[C@@H]5O[C@@H](C)[C@H](O)[C@@H](O)[C@H]5O)[C@@H](O[C@H]5O[C@H](CO)[C@@H](O)[C@H](O)[C@H]5O)[C@H](O)[C@H]4O)cc3O2)cc1O | MRC5 | trypan blue exclusion | 50 µg/mL, 48 h |  | cell count | 13300 ± 450

For quick reference, copied from above:
SMILES | cell line | assay | setting | how to read | measurement | result
COc1cc(CNC(=O)C[C@H](C)CCC=C(C)C)ccc1OCc1cn(-c2ccccc2[N+](=O)[O-])nn1 | MCF7 breast cancer cells | SRB | 10 µM, 48 h |  | growth percent | 50.5%
COc1cc(CNC(=O)C[C@H](C)CCC=C(C)C)ccc1OCc1cn(-c2cccc(Cl)c2)nn1 | IGROV-1 ovarian cancer cells | SRB | 10 µM, 48 h |  | growth percent | 95.3%
COCCNCC(=O)N(CCCCN)CC(=O)N(CC(=O)N(CC(=O)N(CCCCN)CC(=O)N[C@@H](CCCCN)C(=O)N[C@H](CCCCN)C(=O)N[C@@H](CCSC)C(=O)NCCCC[C@H](NC(=O)[C@H](CCSC)NC(=O)[C@@H](CCCCN)NC(=O)[C@H](CCCCN)NC(=O)CN(CCCCN)C(=O)CN(C(=O)CN(Cc1ccc2c(c1)OCO2)C(=O)CN(CCCCN)C(=O)CNCCOC)[C@H](C)c1ccccc1)C(N)=O)[C@H](C)c1ccccc1)Cc1ccc2c(c1)OCO2 | H358 ALDH+ cancer stem cells |  | concentration not given | reference: ALDH+ cells over total H358 | activity ratio | 20 fold
COc1cccc(Cc2cc(CCC(=O)NCCNc3cccc4c(S(=O)(=O)O)cccc34)nn(CC(=O)Nc3ccc(Br)cc3)c2=O)c1 | human neutrophils | calcium flux |  | reference: antagonist IC50 over agonist EC50 | potency ratio | 10 fold
